Results collected from several papers.
± gives the spread as reported.
Mode: substrate
MIPEP: Mitochondrial intermediate peptidase (MIPEP, Homo sapiens, UniProt Q99797)
HDAC6: Protein deacetylase HDAC6 (HDAC6, Homo sapiens, UniProt Q9UBN7)

Sequences of proteins named here, by UniProt entry; tags and fusion partners are left off. Residues count along the entry.
UniProt Q99797, 36-713 limits assumed: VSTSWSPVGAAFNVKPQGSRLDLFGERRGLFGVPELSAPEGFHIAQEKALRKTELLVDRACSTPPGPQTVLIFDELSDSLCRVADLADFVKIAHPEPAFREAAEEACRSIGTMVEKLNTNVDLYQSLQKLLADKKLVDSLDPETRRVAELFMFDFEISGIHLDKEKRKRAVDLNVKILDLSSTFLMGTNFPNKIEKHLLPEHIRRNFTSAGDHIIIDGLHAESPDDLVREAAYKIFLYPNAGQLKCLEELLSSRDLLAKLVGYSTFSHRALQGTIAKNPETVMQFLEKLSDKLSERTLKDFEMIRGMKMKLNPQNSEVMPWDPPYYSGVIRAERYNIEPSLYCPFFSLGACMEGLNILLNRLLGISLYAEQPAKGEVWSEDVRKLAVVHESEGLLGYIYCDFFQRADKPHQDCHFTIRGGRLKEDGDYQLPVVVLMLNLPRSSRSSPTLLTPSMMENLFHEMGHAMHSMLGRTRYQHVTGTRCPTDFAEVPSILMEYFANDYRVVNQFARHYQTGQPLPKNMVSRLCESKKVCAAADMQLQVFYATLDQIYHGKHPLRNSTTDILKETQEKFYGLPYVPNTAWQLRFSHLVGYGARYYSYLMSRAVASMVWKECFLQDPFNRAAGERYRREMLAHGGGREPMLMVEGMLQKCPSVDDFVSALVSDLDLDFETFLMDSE
UniProt Q9UBN7, whole entry: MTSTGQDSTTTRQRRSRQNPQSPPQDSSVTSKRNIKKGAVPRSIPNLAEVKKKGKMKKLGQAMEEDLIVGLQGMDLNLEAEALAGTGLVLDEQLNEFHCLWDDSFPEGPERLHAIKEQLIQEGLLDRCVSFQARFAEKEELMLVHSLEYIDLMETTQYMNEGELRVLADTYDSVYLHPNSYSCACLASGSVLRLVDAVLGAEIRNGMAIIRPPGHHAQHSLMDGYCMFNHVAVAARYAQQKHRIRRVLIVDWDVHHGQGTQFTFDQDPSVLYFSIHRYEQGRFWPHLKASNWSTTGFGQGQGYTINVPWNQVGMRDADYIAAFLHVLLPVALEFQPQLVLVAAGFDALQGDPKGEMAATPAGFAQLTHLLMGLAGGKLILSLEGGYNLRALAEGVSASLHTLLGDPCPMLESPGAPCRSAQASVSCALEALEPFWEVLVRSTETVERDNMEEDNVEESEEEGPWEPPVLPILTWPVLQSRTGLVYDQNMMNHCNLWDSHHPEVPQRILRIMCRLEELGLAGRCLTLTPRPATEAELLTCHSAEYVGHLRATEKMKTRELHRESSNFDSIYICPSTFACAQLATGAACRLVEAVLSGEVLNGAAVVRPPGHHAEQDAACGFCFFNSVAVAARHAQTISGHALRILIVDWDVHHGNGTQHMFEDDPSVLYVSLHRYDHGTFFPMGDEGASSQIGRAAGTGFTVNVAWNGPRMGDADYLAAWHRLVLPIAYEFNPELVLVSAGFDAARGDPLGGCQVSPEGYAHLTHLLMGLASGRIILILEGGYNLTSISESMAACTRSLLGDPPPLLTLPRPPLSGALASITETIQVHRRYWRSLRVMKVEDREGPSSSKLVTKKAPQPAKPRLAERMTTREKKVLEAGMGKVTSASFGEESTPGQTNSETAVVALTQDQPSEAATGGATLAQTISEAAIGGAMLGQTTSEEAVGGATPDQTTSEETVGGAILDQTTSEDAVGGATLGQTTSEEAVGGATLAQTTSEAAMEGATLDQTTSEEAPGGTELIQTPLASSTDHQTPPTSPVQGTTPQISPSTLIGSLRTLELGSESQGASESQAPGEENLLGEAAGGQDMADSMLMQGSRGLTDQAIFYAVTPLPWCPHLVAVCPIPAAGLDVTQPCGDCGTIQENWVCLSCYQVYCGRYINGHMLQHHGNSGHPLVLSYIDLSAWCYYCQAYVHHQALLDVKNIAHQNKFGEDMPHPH
UniProt Q9UDY8, 329-566 limits assumed: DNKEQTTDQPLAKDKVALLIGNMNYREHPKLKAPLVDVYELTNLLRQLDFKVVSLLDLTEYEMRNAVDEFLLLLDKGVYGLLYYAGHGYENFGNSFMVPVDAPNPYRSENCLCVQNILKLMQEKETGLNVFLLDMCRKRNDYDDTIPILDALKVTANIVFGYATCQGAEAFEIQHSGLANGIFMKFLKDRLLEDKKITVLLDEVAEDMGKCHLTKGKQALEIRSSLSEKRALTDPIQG
UniProt P30419, whole entry: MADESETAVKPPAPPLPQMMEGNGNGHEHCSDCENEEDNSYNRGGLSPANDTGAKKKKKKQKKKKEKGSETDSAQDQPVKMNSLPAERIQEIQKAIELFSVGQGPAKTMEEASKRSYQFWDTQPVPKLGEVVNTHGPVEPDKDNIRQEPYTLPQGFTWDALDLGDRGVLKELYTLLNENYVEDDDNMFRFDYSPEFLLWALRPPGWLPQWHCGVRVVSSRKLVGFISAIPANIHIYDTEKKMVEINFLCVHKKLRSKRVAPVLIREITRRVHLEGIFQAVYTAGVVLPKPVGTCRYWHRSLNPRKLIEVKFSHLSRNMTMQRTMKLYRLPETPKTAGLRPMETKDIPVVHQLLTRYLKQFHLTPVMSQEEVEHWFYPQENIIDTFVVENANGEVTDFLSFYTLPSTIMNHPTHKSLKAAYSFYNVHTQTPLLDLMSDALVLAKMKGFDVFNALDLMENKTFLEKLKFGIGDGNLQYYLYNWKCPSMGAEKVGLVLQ
UniProt Q9BY41, whole entry: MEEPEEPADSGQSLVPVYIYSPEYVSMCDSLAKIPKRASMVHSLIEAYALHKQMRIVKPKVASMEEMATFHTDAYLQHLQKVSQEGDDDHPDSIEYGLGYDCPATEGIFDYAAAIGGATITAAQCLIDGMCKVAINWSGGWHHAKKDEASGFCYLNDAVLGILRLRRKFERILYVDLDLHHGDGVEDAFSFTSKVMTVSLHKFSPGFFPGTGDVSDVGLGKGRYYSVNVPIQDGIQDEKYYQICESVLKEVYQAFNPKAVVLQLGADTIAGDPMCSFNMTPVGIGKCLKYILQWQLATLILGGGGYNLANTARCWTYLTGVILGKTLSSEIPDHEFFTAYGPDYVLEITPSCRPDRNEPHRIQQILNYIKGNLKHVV
UniProt Q99K82, whole entry: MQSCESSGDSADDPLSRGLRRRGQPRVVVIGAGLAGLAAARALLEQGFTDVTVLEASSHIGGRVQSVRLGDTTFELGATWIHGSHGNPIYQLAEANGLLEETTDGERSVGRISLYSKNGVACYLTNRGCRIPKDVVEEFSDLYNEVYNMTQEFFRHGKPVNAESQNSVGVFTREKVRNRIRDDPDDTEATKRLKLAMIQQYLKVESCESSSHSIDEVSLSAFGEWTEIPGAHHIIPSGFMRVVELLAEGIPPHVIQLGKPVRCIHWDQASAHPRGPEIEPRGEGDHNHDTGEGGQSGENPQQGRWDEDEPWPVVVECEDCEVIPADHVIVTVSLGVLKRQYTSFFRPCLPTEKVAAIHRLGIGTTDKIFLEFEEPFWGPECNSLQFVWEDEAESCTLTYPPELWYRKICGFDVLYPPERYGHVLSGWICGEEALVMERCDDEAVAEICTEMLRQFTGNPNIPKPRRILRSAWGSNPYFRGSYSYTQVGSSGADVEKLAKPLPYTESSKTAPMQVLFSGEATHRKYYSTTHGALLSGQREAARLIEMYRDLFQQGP
UniProt P51452, 28-179 limits assumed: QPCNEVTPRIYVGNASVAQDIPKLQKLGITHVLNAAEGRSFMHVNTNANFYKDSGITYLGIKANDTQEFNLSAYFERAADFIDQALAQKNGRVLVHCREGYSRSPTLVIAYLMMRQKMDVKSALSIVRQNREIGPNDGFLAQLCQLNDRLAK

For CC(=O)N[C@@H](CC(C)C)C(=O)N[C@@H](CCCNC(=N)N)C(=O)N[C@@H](CO)C(=O)N[C@@H](CCCNC(=N)N)C(=O)Nc1ccc2c(CC(N)=O)cc(=O)oc2c1, the Km was 12.6 µM (MALT1 (Homo sapiens, UniProt Q9UDY8); fluorogenic peptide hydrolysis; pH 7.5, catalytic domain, sodium citrate 0.9 M).
CC(C)[C@H](NC(=O)[C@@H](NC(=O)[C@@H](NC(=O)[C@H](CCCCN)NC(=O)[C@H](CO)NC(=O)[C@H](CO)NC(=O)[C@H](Cc1ccccc1)NC(=O)c1ccccc1N)[C@@H](C)O)[C@@H](C)O)C(=O)N[C@@H](CCCCNc1ccc([N+](=O)[O-])cc1[N+](=O)[O-])C(N)=O gave a Km of 1.3 µM (MIPEP; FRET peptide hydrolysis).
With Cc1cc(=O)oc2cc(NC(=O)[C@H](Cc3ccc(O)cc3)NC(=O)[C@@H](NC(=O)[C@H](CC(C)C)NC(=O)[C@H](CC(C)C)NC(=O)CCC(=O)O)C(C)C)ccc12 the Km was 38 ± 9.1 µM (PSMB5 (Homo sapiens, UniProt P28074); chymotrypsin-like activity; pH 7.8, 37 °C, added: oligomeric Aβ(1-42) 5 µM).
For CC(C)C[C@H](NC(=O)CN)C(=O)N[C@@H](CC(C)C)C(=O)N[C@@H](CC(=O)O)C(=O)N[C@@H](CCCNC(=N)N)C(=O)N[C@@H](CC(C)C)C(=O)N[C@@H](CO)C(=O)N[C@H](C(=O)O)C(C)C, the Km was under 0.1 µM (NMT1 (Homo sapiens, UniProt P30419)).
With CC(=O)NCCCC[C@H](NC(C)=O)C(=O)Nc1ccc2c(C)cc(=O)oc2c1 the Km was 4200 ± 1700 µM (HDAC8 (Homo sapiens, UniProt Q9BY41); 25 °C).
C[C@H](NC(=O)[C@H](CCCCN)NC(=O)CNC(=O)CNC(=O)[C@@H](NC(=O)[C@@H](NC(=O)[C@H](Cc1c[nH]c2ccccc12)NC(=O)c1ccccc1N)[C@@H](C)O)[C@@H](C)O)C(=O)N[C@@H](CCCCNc1ccc([N+](=O)[O-])cc1[N+](=O)[O-])C(N)=O has a Km of 6.2 µM (MIPEP; FRET peptide hydrolysis).
CC(=O)NCCCC[C@H](NC(C)=O)C(N)=O gave a Km of 800 ± 300 µM (HDAC6; 25 °C).
The Km of NCCCNCCCCNCCCNCc1ccc2ccccc2c1 is reported as 15 ± 5 µM (Smox (Mus musculus, UniProt Q99K82); Amplex Red/HRP; pH 7.5, 37 °C).
The Km of CC(=O)NCCCC[C@H](NC(=O)CNC(=O)[C@H](CCCNC(=N)N)NC(C)=O)C(=O)N[C@@H](Cc1c[nH]c2ccccc12)C(N)=O is reported as 60 ± 30 µM (HDAC6; 25 °C).
CC(=O)N[C@@H](Cc1c[nH]cn1)C(=O)N[C@H](C(=O)NCC(=O)N[C@@H](Cc1ccccc1)C(=O)N[C@@H](CC(C)C)C(=O)N[C@H](C(=O)N[C@@H](CCC(=O)O)C(=O)N[C@@H](Cc1cc(=O)oc2cc(OP(=O)(O)O)ccc12)C(=O)N[C@H](C(=O)N[C@@H](C)C(=O)N[C@H](C(=O)N[C@@H](CCCNC(=N)N)C(=O)N[C@@H](Cc1c[nH]c2ccccc12)C(N)=O)[C@@H](C)O)C(C)C)[C@@H](C)O)[C@@H](C)O has a Km of 47.6 µM (DUSP3 (Homo sapiens, UniProt P51452); peptide hydrolysis; pH 6.0, 37 °C, 250 nM enzyme, added: ERK activation-loop peptide).

Excerpt of the above:
CC(=O)N[C@@H](Cc1c[nH]cn1)C(=O)N[C@H](C(=O)NCC(=O)N[C@@H](Cc1ccccc1)C(=O)N[C@@H](CC(C)C)C(=O)N[C@H](C(=O)N[C@@H](CCC(=O)O)C(=O)N[C@@H](Cc1cc(=O)oc2cc(OP(=O)(O)O)ccc12)C(=O)N[C@H](C(=O)N[C@@H](C)C(=O)N[C@H](C(=O)N[C@@H](CCCNC(=N)N)C(=O)N[C@@H](Cc1c[nH]c2ccccc12)C(N)=O)[C@@H](C)O)C(C)C)[C@@H](C)O)[C@@H](C)O has a Km of 47.6 µM (DUSP3 (Homo sapiens, UniProt P51452); peptide hydrolysis; pH 6.0, 37 °C, 250 nM enzyme, added: ERK activation-loop peptide).
